Experimental data pooled from the literature.
Lines come from different studies, so protocols differ. “And” joins repeats or separate records; there may be more than shown. Numbers after ± are the reported error.
MAPK8: Mitogen-activated protein kinase 8 (MAPK8, Homo sapiens, UniProt P45983)
Sequence of UniProt P46089 (whole entry, unmodified, looked up): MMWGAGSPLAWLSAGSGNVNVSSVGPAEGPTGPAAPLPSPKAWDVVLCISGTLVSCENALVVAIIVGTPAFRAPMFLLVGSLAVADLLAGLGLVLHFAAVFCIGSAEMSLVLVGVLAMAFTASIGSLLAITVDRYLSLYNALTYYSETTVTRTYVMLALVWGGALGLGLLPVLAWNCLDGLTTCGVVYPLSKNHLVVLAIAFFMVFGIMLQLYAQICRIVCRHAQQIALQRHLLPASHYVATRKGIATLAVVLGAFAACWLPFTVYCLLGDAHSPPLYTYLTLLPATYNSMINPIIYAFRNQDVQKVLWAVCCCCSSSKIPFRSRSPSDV
Sequence of UniProt P45983 (whole entry, looked up): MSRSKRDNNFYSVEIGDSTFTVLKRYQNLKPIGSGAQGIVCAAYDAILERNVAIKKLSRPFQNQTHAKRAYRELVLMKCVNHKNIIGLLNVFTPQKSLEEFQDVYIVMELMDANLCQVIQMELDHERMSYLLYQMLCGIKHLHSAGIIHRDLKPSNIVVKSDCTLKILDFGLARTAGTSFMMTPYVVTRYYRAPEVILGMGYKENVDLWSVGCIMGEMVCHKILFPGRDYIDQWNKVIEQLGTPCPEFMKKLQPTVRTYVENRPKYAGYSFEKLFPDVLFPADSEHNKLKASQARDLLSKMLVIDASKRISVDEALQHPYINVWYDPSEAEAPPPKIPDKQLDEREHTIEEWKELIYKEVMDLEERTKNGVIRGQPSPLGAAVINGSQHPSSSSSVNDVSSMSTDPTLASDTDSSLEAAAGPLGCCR
Sequence of UniProt P06748 (whole entry, looked up): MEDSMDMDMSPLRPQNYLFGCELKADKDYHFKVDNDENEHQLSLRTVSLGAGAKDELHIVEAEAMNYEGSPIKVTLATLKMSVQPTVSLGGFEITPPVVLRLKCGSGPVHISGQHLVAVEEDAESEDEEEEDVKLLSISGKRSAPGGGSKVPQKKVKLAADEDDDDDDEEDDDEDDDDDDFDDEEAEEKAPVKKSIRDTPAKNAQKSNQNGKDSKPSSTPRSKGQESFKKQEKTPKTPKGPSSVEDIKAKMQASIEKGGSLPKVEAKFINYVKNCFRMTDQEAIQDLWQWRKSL
Sequence of UniProt P08546 (whole entry, looked up): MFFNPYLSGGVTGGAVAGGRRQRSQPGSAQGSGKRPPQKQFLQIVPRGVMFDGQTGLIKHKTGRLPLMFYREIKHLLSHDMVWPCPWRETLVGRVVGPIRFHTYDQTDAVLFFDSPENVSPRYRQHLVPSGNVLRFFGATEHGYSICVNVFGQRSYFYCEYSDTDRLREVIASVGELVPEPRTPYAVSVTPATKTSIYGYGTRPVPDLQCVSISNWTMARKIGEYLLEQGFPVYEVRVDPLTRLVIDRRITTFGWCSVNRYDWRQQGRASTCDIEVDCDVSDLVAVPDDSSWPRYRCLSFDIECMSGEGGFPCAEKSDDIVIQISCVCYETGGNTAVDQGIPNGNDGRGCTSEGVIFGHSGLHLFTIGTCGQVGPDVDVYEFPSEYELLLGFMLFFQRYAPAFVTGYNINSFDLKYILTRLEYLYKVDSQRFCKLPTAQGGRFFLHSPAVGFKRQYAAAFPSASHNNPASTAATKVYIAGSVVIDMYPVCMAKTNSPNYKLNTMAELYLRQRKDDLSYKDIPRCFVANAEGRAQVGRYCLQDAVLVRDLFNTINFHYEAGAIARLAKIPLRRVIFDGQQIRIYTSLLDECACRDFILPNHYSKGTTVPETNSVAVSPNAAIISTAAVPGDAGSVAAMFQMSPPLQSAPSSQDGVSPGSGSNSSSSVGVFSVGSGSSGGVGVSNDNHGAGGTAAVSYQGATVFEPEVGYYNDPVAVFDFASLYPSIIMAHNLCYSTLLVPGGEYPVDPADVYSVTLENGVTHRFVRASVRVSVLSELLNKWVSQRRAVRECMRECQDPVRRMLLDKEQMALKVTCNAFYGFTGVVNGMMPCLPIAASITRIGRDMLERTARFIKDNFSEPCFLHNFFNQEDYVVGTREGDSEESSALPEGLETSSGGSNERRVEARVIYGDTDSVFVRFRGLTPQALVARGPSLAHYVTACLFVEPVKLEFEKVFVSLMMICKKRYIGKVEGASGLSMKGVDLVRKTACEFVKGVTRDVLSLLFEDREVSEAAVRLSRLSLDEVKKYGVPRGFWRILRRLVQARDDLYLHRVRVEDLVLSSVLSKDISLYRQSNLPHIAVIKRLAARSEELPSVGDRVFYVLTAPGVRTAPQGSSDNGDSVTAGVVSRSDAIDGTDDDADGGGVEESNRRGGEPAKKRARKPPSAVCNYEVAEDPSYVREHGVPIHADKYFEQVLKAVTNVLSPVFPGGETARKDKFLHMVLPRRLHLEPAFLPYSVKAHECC
Sequence of UniProt Q15910 (whole entry, looked up): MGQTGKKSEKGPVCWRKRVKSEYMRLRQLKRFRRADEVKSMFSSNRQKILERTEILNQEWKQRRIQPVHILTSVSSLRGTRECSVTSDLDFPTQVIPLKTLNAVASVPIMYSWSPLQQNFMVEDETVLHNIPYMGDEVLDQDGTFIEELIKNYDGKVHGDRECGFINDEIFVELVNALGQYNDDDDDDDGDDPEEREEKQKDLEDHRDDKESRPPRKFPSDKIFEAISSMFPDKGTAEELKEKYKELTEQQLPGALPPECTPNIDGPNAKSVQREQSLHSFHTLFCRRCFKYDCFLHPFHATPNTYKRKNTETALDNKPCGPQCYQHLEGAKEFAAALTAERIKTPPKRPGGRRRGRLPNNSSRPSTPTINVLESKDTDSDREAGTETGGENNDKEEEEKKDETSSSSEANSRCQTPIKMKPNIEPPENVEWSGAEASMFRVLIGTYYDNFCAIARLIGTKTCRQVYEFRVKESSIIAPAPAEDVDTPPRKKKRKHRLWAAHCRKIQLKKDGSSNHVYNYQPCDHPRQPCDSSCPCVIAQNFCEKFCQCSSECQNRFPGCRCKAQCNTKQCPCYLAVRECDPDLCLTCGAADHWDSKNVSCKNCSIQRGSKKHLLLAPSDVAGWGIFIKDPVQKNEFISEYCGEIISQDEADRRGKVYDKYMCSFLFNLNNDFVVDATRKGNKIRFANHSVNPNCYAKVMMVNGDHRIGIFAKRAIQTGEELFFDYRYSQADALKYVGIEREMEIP
Sequence of UniProt O75385 (whole entry, looked up): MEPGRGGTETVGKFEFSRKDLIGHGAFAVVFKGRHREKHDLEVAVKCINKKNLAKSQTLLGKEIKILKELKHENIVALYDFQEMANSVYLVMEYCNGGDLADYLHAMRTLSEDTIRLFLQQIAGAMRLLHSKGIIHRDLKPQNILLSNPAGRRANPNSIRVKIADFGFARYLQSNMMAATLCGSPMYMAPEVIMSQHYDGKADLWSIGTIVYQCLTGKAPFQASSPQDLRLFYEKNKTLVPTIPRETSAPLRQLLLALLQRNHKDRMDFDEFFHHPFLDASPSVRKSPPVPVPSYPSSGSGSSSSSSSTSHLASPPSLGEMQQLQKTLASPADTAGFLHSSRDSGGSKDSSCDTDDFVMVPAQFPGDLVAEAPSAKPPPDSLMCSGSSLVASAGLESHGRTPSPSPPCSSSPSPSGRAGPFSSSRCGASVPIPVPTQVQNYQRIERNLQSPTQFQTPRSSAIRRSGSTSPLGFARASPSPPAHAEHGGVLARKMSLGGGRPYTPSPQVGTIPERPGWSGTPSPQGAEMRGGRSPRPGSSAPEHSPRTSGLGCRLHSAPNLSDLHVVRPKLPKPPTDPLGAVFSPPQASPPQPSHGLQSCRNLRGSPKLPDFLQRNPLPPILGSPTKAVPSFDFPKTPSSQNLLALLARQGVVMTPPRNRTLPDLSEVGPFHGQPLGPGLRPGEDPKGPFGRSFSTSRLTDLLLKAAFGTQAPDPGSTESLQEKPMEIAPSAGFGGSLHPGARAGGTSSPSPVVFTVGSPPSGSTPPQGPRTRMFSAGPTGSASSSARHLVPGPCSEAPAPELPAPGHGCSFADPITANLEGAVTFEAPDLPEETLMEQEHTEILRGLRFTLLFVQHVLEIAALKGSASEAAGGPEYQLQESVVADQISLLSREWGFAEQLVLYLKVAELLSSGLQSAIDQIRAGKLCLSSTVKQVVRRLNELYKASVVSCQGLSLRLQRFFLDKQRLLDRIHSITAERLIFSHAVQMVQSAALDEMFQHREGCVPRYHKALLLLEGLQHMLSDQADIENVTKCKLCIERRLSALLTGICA
Sequence of UniProt O75874 (whole entry, unmodified, looked up): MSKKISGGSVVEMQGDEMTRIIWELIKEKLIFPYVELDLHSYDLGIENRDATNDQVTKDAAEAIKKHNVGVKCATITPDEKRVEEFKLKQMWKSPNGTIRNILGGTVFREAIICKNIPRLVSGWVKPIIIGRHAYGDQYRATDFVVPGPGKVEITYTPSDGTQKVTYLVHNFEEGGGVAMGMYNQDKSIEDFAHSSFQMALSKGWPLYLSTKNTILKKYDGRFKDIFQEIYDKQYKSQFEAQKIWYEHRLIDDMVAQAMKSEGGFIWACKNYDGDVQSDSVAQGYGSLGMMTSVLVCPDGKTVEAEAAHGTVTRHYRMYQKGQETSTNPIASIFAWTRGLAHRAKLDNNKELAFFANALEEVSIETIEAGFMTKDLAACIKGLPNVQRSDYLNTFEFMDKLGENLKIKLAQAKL
Sequence of UniProt P02754 (whole entry, unmodified, looked up): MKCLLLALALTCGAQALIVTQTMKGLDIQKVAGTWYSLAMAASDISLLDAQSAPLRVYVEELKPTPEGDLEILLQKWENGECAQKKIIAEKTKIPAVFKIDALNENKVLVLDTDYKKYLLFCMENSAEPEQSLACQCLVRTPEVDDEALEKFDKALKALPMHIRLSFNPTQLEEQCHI

SMILES	target	assay	test system	setting	scale	endpoint	result
CC(=O)N(C)CCN1CCN(c2cnc3c(cc(C(=O)NCc4ccc(Cl)cc4)c(=O)n3CC(=O)N3CC(C)(F)C3)n2)C1=O	DNA polymerase catalytic subunit (Human cytomegalovirus, UniProt P08546)	enzyme activity, inhibitor				Hill slope	0.73
C[C@@H]1C[C@H](Nc2ccccc2)c2cc(F)ccc2N1C(=O)c1ccc(Br)cc1	Ecdysone receptor (Aedes albopictus, UniProt Q9U3Y4)	ligand binding, inhibitor	intact cells	added: [3H]ponasterone A	direction not given	pIC50 Z-score	-0.07
O=C(c1ccncc1)N1CCN(CC(OCc2ccc3ccccc3c2)c2ccc(Cl)cc2Cl)CC1 (stereo not shown)	ULK1 (Homo sapiens, UniProt O75385)	enzyme activity, inhibitor, ADP detection		0.1 µM		activity vs control	112%
N=C(N)NCCC[C@H](NC(=O)[C@@H]1CCCN1C(=O)[C@H](CCCNC(=N)N)NC(=O)[C@@H]1CCCN1C(=O)[C@H](CCCNC(=N)N)NC(=O)[C@@H]1CCCN1C(=O)[C@H](CCCNC(=N)N)NC(=O)[C@@H]1CCCN1C(=O)[C@H](CCCNC(=N)N)NC(=O)[C@@H]1CCCN1C(=O)[C@H](CCCNC(=N)N)NC(=O)[C@@H]1CCCN1C(=O)[C@H](CCCNC(=N)N)NC(=O)[C@@H]1CCCN1C(=O)[C@H](CCCNC(=N)N)NC(=O)[C@@H]1CCCN1C(=O)[C@H](CCCNC(=N)N)NC(=O)[C@@H]1CCCN1C(=O)[C@H](CCCNC(=N)N)NC(=O)[C@@H]1CCCN1C(=O)[C@H](CCCNC(=N)N)NC(=O)[C@@H]1CCCN1C(=O)[C@H](CCCNC(=N)N)NC(=O)[C@@H]1CCCN1C(=O)[C@H](CCCNC(=N)N)NC(=O)[C@@H]1CCCN1C(=O)[C@H](CCCNC(=N)N)NC(=O)[C@@H]1CCCN1C(=O)[C@H](CCCNC(=N)N)NC(=O)[C@@H]1CCCN1C(=O)[C@H](CCCNC(=N)N)NC(=O)[C@@H]1CCCN1C(=O)[C@H](CCCNC(=N)N)NC(=O)[C@@H]1CCCN1C(=O)[C@H](CCCNC(=N)N)NC(=O)[C@@H]1CCCN1C(=O)[C@H](CCCNC(=N)N)NC(=O)[C@@H]1CCCN1C(=O)[C@H](CCCNC(=N)N)NC(=O)[C@@H]1CCCN1C(=O)[C@H](CCCNC(=N)N)NC(=O)[C@@H]1CCCN1C(=O)[C@H](CCCNC(=N)N)NC(=O)[C@@H]1CCCN1C(=O)[C@H](CCCNC(=N)N)NC(=O)[C@@H]1CCCN1C(=O)[C@H](Cc1ccc(O)cc1)NC(=O)[C@H](CO)NC(=O)CN)C(=O)O	Nucleophosmin (NPM1, Homo sapiens, UniProt P06748)	SANS		2 molar excess over NPM1, 25 °C		maximum particle dimension	299 Å
CC(C)[C@@H]1NC(=O)[C@H](Cc2ccccc2)NC(=O)CSC[C@@H](C(N)=O)NC(=O)[C@H](CCC(=O)O)NC(=O)[C@H](CO)NC(=O)[C@H](Cc2c[nH]c3cccc(Cl)c23)NC(=O)[C@H](C2CCCCC2)NC(=O)[C@H](C(C)C)NC(=O)[C@H](Cc2ccc(O)cc2)NC(=O)[C@H](CC(=O)O)NC(=O)[C@H](Cc2c[nH]c3ccccc23)NC(=O)[C@H](Cc2ccc(N)nc2)NC(=O)[C@H](Cc2c[nH]c3ccc(Cl)cc23)NC(=O)[C@H](CCC(=O)O)NC1=O	Interleukin-1 receptor-like 2 (IL1RL2, Homo sapiens, UniProt Q9HB29)	reporter gene (SEAP), inhibitor, HEK-Blue IL-36R reporter	HEK-Blue IL-36R cells	0.005 µM, 6 h, added: IL-36β 100 ng/mL		remaining activity	94.2%
Cc1ccc(-c2c(/C=C(\C#N)C(=O)NC(C)C)n(CCCO)c3ncnc(N)c23)cc1	Tyrosine-protein kinase ABL1, non-phosphorylated (ABL1, Homo sapiens, UniProt P00519, H396P)	cell-free assay, competition with immobilised ligand		1 µM		remaining binding	100%
Cc1cc(C)c(CNC(=O)c2c(C)n(C(C)C3CCC(NC4(C)COC4)CC3)c3ccccc23)c(=O)[nH]1 (stereo not shown)	EZH2 (Homo sapiens, UniProt Q15910)	binding, jump dilution		added: H3K27me3 activating peptide		residence time	564 min
CC(C)(C)OC(=O)C1=C[C@@](C)(C(=O)OCC#Cc2ccncc2)CCC1=O	MAPK8	D-peptide binding, inhibitor, FP peptide displacement		1.562 µM	lower is stronger displacement	fraction bound	0.888
C[C@@H](Nc1nc(N[C@H](C)C(F)(F)F)nc(-c2cccc(Cl)n2)n1)C(F)(F)F	IDH1 (Homo sapiens, UniProt O75874, R132H)	enzyme activity, diaphorase-resazurin coupled		1 h preincubation, R132H homodimer		maximal inhibition	92.6 ± 5.3%
CCCCCCCCCCCCC/C=C/C=O	Elongation factor 2 (EEF2, Homo sapiens, UniProt P13639)	competitive isoTOP-ABPP	Ramos soluble proteome	100 µM, added: iodoacetamide probe	baseline: DMSO over compound-treated, higher = stronger cysteine blockade	isoTOP-ABPP competition ratio	1
CC(C)Oc1cc(Cl)ccc1CNc1cc(-c2ccccc2)nc2ncnn12	GPR3 (Homo sapiens, UniProt P46089, V196W)	cAMP level, cAMP GloSensor		1 nM	higher = more cAMP	cAMP luminescence	51100 a.u. and 47300 a.u. and 34500 a.u. and 33300 a.u.
CN(C)c1ccc(C#CCOC(=O)[C@]2(C)C=C(C(=O)OC(C)(C)C)C(=O)CC2)cc1	MAPK8	D-peptide binding, inhibitor, FP peptide displacement		1000 µM	lower is stronger displacement	fraction bound	0.271
O=C(O)C1OC(OC2C(C(=O)O)OC(OC3C(C(=O)O)OC(OC4C(C(=O)O)OC(O)C(O)C4O)C(O)C3O)C(O)C2O)C(O)C(O)C1O (stereo not shown)	Beta-lactoglobulin (LGB, Bos taurus, UniProt P02754, A134V/G80D)	isothermal titration calorimetry		concentration not given, pH 2.65, 37 °C, 50 mM KH2PO4	ligand per protein	binding stoichiometry	5.2

Excerpt of the above:
SMILES	target	assay	test system	setting	scale	endpoint	result
CN(C)c1ccc(C#CCOC(=O)[C@]2(C)C=C(C(=O)OC(C)(C)C)C(=O)CC2)cc1	MAPK8	D-peptide binding, inhibitor, FP peptide displacement		1000 µM	lower is stronger displacement	fraction bound	0.271
CC(=O)N(C)CCN1CCN(c2cnc3c(cc(C(=O)NCc4ccc(Cl)cc4)c(=O)n3CC(=O)N3CC(C)(F)C3)n2)C1=O	DNA polymerase catalytic subunit (Human cytomegalovirus, UniProt P08546)	enzyme activity, inhibitor				Hill slope	0.73
